{"data": "Assay results pooled from the literature", "target": "Serine/threonine-protein kinase MRCK gamma (CDC42BPG, Homo sapiens, UniProt Q6DT37)", "note": "Compare with care: the assays were run in different laboratories."}
{"Compound": "O=C(Cc1ccc(OCc2ccccc2)cc1)NC1(C(=O)O)CCN(C(=O)c2ccc(-c3cccc(Cl)c3)cc2)CC1", "assay": "enzyme activity, inhibitor", "conditions": "10 µM", "quantity": "activity vs control", "value": "112%"}
{"Compound": "CC(C)=CC1OC(C)(C)C2C=C3C(=O)C(Cl)=CC(O)C3C3C(O)C4OC4C(=O)C132 (stereo not shown)", "assay": "binder, KINOMEscan competition binding", "conditions": "10 µM", "how to read": "reference: DMSO control", "quantity": "remaining binding", "value": "67%"}
{"Compound": "Cc1ccc(-c2c(/C=C(\\C#N)C(=O)NC(C)C)n(CCCO)c3ncnc(N)c23)cc1", "assay": "cell-free assay, competition with immobilised ligand", "conditions": "1 µM", "quantity": "remaining binding", "value": "91%"}
{"Compound": "C=CC(=O)N1CCc2ccc(-n3c(=O)ccc4cnc5ccc(-c6cnn(C)c6)cc5c43)cc21", "assay": "KINOMEscan", "conditions": "1 µM", "how to read": "reference: DMSO control", "quantity": "remaining binding", "value": "100%"}
{"Compound": "CNC1C[S+]2CC[S+]3CC[S+](C1)[Ru-4]321([N]=C=S)[n]2c3ccc(OC)cc3c3c4c(c5cc(F)c[n+]1c5c32)C(=O)NC4=O (stereo not shown)", "assay": "KinomeScan", "conditions": "0.1 µM", "how to read": "reference: untreated", "quantity": "remaining binding", "value": "93%"}
{"Compound": "COc1cc(Nc2nc(C)cc(-c3cnn4nc(OC)ccc34)n2)cc(C(F)(F)F)c1", "assay": "inhibitor", "conditions": "1 µM, DMPK2", "how to read": "reference: control", "quantity": "remaining activity", "value": "89%"}
{"Compound": "CCn1cc(C(=O)O)c(=O)c2c(N)c(F)c(NC3CCCCC3)cc21", "assay": "kinase activity", "conditions": "0.1 µM, together with: ATP at Km", "quantity": "inhibition", "value": "6.7%"}
{"Compound": "COc1c(Cl)cccc1Nc1c(-c2ccncc2C#C[C@@]2(C)CCCN2C(=O)/C=C/CN(C)C)[nH]c2c1C(=O)NCC2", "assay": "binding, competition with immobilised ligand", "conditions": "3 µM", "quantity": "remaining binding", "value": "64%"}
{"Compound": "CN1CCN(Cc2ccc(-c3ccc(CO[C@H]4CCC[C@@H]4NC(=O)c4cc(-c5cnn(C)c5)cnc4N)cc3)cc2)CC1", "assay": "enzyme activity, inhibitor", "conditions": "0.1 µM", "quantity": "inhibition", "value": "12%"}
{"Compound": "C=CC(=O)N1CCCC(n2c(=O)c3ncccc3n(Cc3ccc(Oc4ccccc4)cc3)c2=O)C1 (stereo not shown)", "assay": "cell-free assay, competition with immobilised ligand", "conditions": "1 µM", "quantity": "remaining binding", "value": "92%"}
{"Compound": "CNC(=O)C1CCN(c2cc(C)c(F)cc2NC(=O)c2ccc(-c3cc(O)ccc3C)c(C)c2)CC1", "assay": "KINOMEscan", "conditions": "1 µM", "how to read": "reference: DMSO control", "quantity": "remaining binding", "value": "100%"}
{"Compound": "NC(=O)[C@@H](O)C[C@H]1CCc2sc3ncnc(O[C@H]4CC[C@H](N5CCOCC5)CC4)c3c21", "assay": "radioisotope kinase", "conditions": "10 µM", "quantity": "inhibition", "value": "4%"}
{"Compound": "Nc1ncc(-c2cc(-c3cnn(CC(F)(F)F)c3)ncc2F)nc1C(=O)NC1CNCC(F)C1 (stereo not shown)", "assay": "enzyme activity", "conditions": "1 µM", "how to read": "reference: DMSO control", "quantity": "remaining activity", "value": "86%"}
{"Compound": "CCN1CCN(Cc2ccc(C(=O)Nc3ccc(C)c(NCc4cnc5[nH]ccc5c4OC)c3)cc2C(F)(F)F)CC1", "assay": "KINOMEscan", "conditions": "1 µM", "quantity": "remaining binding", "value": "100%"}
{"Compound": "C=CC(=O)N1Cc2nc(-c3cc(-c4cc(Cl)cnc4Cl)c(F)cc3F)n(-c3ccncn3)c2C1", "assay": "cell-free assay", "conditions": "1 µM", "quantity": "inhibition", "value": "0.3%"}
{"Compound": "Cc1cnc2nc1Nc1cccc(c1)COC/C=C/COCc1cc(ccc1OCCN1CCOCC1)N2", "assay": "binding, competition with immobilised ligand", "conditions": "0.1 µM", "quantity": "remaining binding", "value": "95%"}
{"Compound": "COc1cc(Nc2nccc(-c3cnn4nc(OC)ccc34)n2)cc(C(F)(F)F)c1", "assay": "KINOMEscan", "conditions": "1 µM, DMPK2 1000 nM", "quantity": "remaining binding", "value": "91%"}
{"Compound": "NC(=O)C[C@H]1CCc2sc3ncnc(O[C@H]4CC[C@H](N5CCOCC5)CC4)c3c21", "assay": "radioisotope kinase", "conditions": "10 µM", "quantity": "inhibition", "value": "-1%"}
{"Compound": "Nc1ncc2c(n1)-c1c([nH]c3ccc(C4=CCOCC4)cc13)CCC2", "assay": "scanMAX", "conditions": "1 µM", "quantity": "remaining binding", "value": "77%"}
{"note": "A few entries again:"}
{"Compound": "Nc1ncc(-c2cc(-c3cnn(CC(F)(F)F)c3)ncc2F)nc1C(=O)NC1CNCC(F)C1 (stereo not shown)", "assay": "enzyme activity", "conditions": "1 µM", "how to read": "reference: DMSO control", "quantity": "remaining activity", "value": "86%"}
